Assay results gathered from unrelated publications.
A part holds a random share of what one study measured.

Study 1
Target: RING finger protein unkempt homolog, zinc fingers 1-6, SBP tag (UNK, Homo sapiens, UniProt Q9C0B0, residues 30-357)
UniProt Q9C0B0, sequence (30-357, looked up): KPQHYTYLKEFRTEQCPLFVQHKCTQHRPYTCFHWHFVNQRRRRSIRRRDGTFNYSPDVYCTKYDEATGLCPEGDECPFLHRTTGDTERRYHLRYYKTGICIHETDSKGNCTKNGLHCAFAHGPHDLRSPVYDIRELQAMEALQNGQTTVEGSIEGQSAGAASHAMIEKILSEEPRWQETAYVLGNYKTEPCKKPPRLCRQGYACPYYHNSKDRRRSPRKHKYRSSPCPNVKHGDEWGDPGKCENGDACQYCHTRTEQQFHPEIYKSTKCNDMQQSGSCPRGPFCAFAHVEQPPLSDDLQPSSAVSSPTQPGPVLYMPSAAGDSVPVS
Technique: RNA Bind-n-Seq
Molecule type: RNA
Sample: in vitro
Tested at: 100 nM
Setting: RNA with constant flanks, vertebrate orthologous sites, ends assumed
Relative to: input RNA pool
Direction: higher = stronger binding
Shared flanks, not repeated: GGGAGUUCUACAGUCCGACGAUC … CAACAGAGGAUUGAGCAUCA
With `AAAUAUACUUCAUGCCAUGGACUCCGUAUCGCACUGAUACUUUGAUAGAGUAUGCUUCUUUAGAGGACUUCCAAAACGGACGCCAGCAGACGACGUAUAAACUCCCGAAUCGAGUGGACG` the bound/input enrichment was 0.889 ratio.
The bound/input enrichment of `UUGCCUACAAUAAUGAAAACCUACAGGAAUUUUUUUAUUUUUCAUUUUCUUCUUAGGCAUAGUUAGUCUUUUUCCCCCAGGCAGAUGAUUCUGAGUGUGGGAGUGUGUCUGCACAUGUUA` is reported as 0.416 ratio.
For `ACAUAUGUAAUCAUUUGAUUAAAAUUGGAUAAGAGAUUACUGUUCAUUUUCCCUUUCAAACACACUUAUCCUAUUUUUAAUCUAUUUUGCAAAACAUCAGUUGUGAAUGGCUGCUUGACA`, the bound/input enrichment was 0.577 ratio.
`ACAGGAGCAGCAUAGGCUGUUUGAGCUUUGGGGAAAUGAACUUUGCUUUUUAUAUUUAACUAGGAUACUUUUAUAUGAUGGGUGCUUUGAGUGUGAAUGCAGCAGGCUCUCUUGUUUCCG` has a bound/input enrichment of 1.98 ratio.
The bound/input enrichment of `ACUGUUGUUAAGCACUGUGUUCCAGACCAUGUCUGACUUAGUGUAACCUAGGAGAUUUUAUAGUUUUAUUUUAAUGAAAUCCUGAUUGACGCACAGCAGUGGAGAGAACAGUCUUUUACU` is reported as 1.15 ratio.
The bound/input enrichment of `UUCCAGCACAACUGACUGGACCCCGGCAUUCUUUGCAUGGUUACCUGUCAAACACAAGUCUAGUUAAUUUUCAGGAAACAACCAGGCAGCCAUCUUUAUCUUGUAGCCCGGCUGGAGAUU` is reported as 0.296 ratio.
With `GAAUGUUUUCAAACUGGGUUUUUUUUGCCUGUAAGAAAACAGUGUACCCGAGCACACAUAUAGAGCUUUUUAAUAGCACUAACCAAUGCCUUUUUAGAUGUAUUUUUGAUGUAUAUAUCU` the bound/input enrichment was 0.877 ratio.
For `UUGGGAGCAGCUCUCCAAAUAGAAAUAGUAGUAAAAAAACCAAACAAAAUGAUAUUUGUGUAGAAAAAACAGAAGUAAUCAUGAAGUAAUGUGCAGUGUCCAGUCCUAAAGAUUUGGGGU`, the bound/input enrichment was 1.97 ratio.
With `GAUUUGGACCCUGGAGCCGAACCAGGGAGCUAGCAAAAGUAAAGCAUACUUGUAAAAUUAUAGCCAUGUGCAGCUGUACAGCAACAGUAUUACCACUAGCAGCUGUGUUAAAGUAUUUAU` the bound/input enrichment was 0.688 ratio.
For `UCAUCUGACUGGAUGAAGACUGUUUCCAAGUUAUAACCAAACAAAUAGCUCCAUGGACUUUAGGAAUUAUAUGAUGAGAAAUGAAAAUUUGGAACCAUUGCCCAAAAACUGGGAGAUGGC`, the bound/input enrichment was 0.786 ratio.
`GGAAUACUGAAAAGACUUCCAUGCUUACGUUAAAUGCUAAAGUUAAGCUGCAGUAUAUUAGUAAAUAAUUACUUUAUUUCUGCAGUAUGGUUUGCUUAUGUUUAAAGUCAGACAGUAGAC` has a bound/input enrichment of 0.57 ratio.

Study 2
Target: RNA binding protein fox-1 homolog 2, RRM domain, GST-SBP tag (RBFOX2, Homo sapiens, UniProt O43251-10, residues 100-194)
Technique: RNA Bind-n-Seq
Molecule type: RNA
Sample: in vitro
Tested at: 365 nM
Setting: natural RNA segment, single round, ends assumed
Relative to: no-protein control
Direction: higher = stronger binding
Shared flanks, not repeated: GGGAGUUCUACAGUCCGACGAUC … UGGAAUUCUCGGGUGCCAA
Construct (chain): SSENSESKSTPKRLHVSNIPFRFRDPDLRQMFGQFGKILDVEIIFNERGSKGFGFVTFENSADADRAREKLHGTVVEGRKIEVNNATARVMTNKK
`UUUUUACCUGUAUUGCAUUUUCCCCCUAGAGAAAUAGAUCAAAAGAGCACAAGAGUAUGCGUACAUAGUUUACCAGGUAGUAGAAGUGUGUUAAAAUGUUCCUGUAAAAG`: “RBNS enrichment (R)” 4.37.
For `AAGACCCUACAAUAAGAUUGUUUUAUCUGUACAUUUUUUCAGAUAUUUAACUGUAUAAAAAUGUUCAUUUUACACAAUAUUUAAUUAAAGUAUUUCUUGUCUGUGAAUUU`, “RBNS enrichment (R)” read 0.536.
`GUUUGGCGUGAUGUCACGUGUGGCCAGACUGGCGACCGUACACUAGGUUUUUGAUCUUGCACUUUGCGAUGCAAAUUAUCUGUGUGGAGGGGAAGCGAAUGUUUCUGAAC`: “RBNS enrichment (R)” 0.311.
For `AACAGAUUGAGGCACUGACGCAGCCAGCUUAGCCCAGCAUUACUGUCUCUGUUGUGAGCUUGCUCUUUGUUUUAAAAGGUGCCAGGGGUACAUUUUUGCACUGAAACCUA`, “RBNS enrichment (R)” read 0.346.
For `CUGUCUUUUUAGAGGAAAAGGACUCUGUAGAACAGAUAUUAUAUUUAUACUUUGUUCCUCCUGCCCAACAACUGUCAGUACUGAGAUCUGAAAUUAAAAUGACUUGUUUG`, “RBNS enrichment (R)” read 0.975.
`UUACUCCUAGUCCUACCAGUAAGGCGUCCACUUGCAAUGGUAACUGAGUCCACAAACAGCUGUUAGAACCUAGACAGCAGCAUGACUGGCUCAGAGCUCUUGCCCAUGAG`: “RBNS enrichment (R)” 0.811.
For `GUGGGGCCCUGGAUGGCAGCUCUGGCCCAGACAUGAAUACCUCGUGUUCCUCCUCCCUCUAUUACUGUUUCACCAGAGCUGUCUUAGCUCAAAUCUGUUGUGUUUCUGAG`, “RBNS enrichment (R)” read 0.478.
For `AGCAUAGUCAACAGCGAGCAUAAAGACUUUGUCACUUGGAGCGUUACCAGCAGAGUAAAUGUGGCCAUUGACUGGCCUAAGCAUUCUCUAAGAGUUGUGCUAGAUGGCUU`, “RBNS enrichment (R)” read 0.457.
`AGCUUGCUGAAAUGGAAAACUUGGAAGAAUUGUUCAUCUCUUAGGCUUCCAUUUGGAUGGGCCUGCCUUAACAUUGUUUGAAAUGCAGCGUGAGUAGCUCUUUUGUUUAC`: “RBNS enrichment (R)” 0.302.
`CUGGAACCUGUCCUGCACUCUUCCUGCAGUUAGGUAACUGGGGGCAUAGUCAUUCCAGUGGAGAGUGGAAGUAACCUCAUGGUGAUUUUUAACCCUAAUUUCUCUCUGAC` — result for “RBNS enrichment (R)”: 0.297.
Under “RBNS enrichment (R)”, `UUGACCUCCCGGCAGGGCAAGGUGAGGAGGCGGACCCAAAGCAGUACCAGCAGGACUUGUUGCCAGUGAUACCAAAACAGACUUUUCCCAAGCAGUGCCUCACAUGUCUG` is recorded as 0.426.
Under “RBNS enrichment (R)”, `UGCCAGGUCUGCCUAGCGUUUACCACUGUUGUUAAGCCACAGCCCUUGGCCACCACAUGGCCAUCCUCAGUGAGGCGCCAUGAACCCUUCUUAGGCCCUCAGGUCCCCAU` is recorded as 0.183.

Study 3
Target: Histone acetyltransferase KAT6A, winged helix 2, GST fusion (KAT6A, Homo sapiens, UniProt Q92794, residues 85-181)
Technique: protein binding microarray
Molecule type: double-stranded DNA, one strand shown
Sample: in vitro
Tested at: not given
Setting: 8-mer, flanks averaged, mean of 2 arrays, mostly near background
Relative to: not given
Direction: higher = stronger binding
Residues (chain): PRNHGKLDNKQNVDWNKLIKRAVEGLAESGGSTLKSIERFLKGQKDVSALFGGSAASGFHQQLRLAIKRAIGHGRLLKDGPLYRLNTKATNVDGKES
`CCTACCGA` has an E-score of -0.173.
`CAACTCCG` has an E-score of 0.0765.
`AGCCAAGA` has an E-score of -0.176.
With `CACCTTCA` the E-score was -0.0957.
For `GGGCAAGA`, the E-score was 0.148.
For `TAGAAAGA`, the E-score was -0.154.
`AAAAACCG` gave an E-score of -0.0912.
For `AGCAGAAG`, the E-score was -0.167.
With `AATGAGGT` the E-score was -0.0685.
The E-score of `AAAATAAC` is reported as -0.209.
With `ATTTAAAG` the E-score was 0.0834.
For `GCGAGAAC`, the E-score was 0.107.
The E-score of `GAGGTAGC` is reported as -0.0755.
With `ACGACCTG` the E-score was -0.14.
With `CAGACACC` the E-score was 0.0879.

Single results of other studies
With `PhoQ, residues 284 288 289 292 302 303 MLMVEA` the fold induction was 16.6 (PhoP, residues 12 14 15 18 19 VQALL (Escherichia coli, UniProt P23836); Sort-seq, refers to: YFP reporter; E. coli; PhoQ-PhoP variant library, with: 10 µM Mg2+; relative to: high Mg2+ state, higher = stronger signaling).

Excerpt of the above (study 3):
`CAACTCCG` has an E-score of 0.0765.
`AGCCAAGA` has an E-score of -0.176.
